# Measurements of several laboratories.
# Every numbered part comes from another study and shows a few of its results, in no order. Changes are numbered by the printed parent chain.

# Block 1 — technique: competition protein-binding microarray; form: double-stranded DNA, one strand shown; sample: in vitro; concentration: 2 µM; added: Cbf1 competitor, 0.05 µM; direction: higher = stronger binding; all sequences stand within: … GTCTTGATTCGCTTGACGCTGCTG
# Target: Phosphate system positive regulatory protein PHO4, full length, GST-tagged (PHO4, Saccharomyces cerevisiae, UniProt P07270, residues 1-312)
# Sequence of UniProt P07270 (whole entry, looked up): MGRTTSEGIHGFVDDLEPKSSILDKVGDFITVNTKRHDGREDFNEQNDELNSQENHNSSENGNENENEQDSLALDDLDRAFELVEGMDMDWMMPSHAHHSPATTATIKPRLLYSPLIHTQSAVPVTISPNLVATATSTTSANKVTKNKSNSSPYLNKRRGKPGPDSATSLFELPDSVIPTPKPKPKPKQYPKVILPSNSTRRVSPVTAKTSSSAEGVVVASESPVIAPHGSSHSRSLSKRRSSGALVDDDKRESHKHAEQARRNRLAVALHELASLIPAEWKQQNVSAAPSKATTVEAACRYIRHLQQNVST
# Notes: whole 60-bp probe, lowest competitor level
Strand,fluorescence intensity
TGAAATAGATATTAGCACGTGTCGGGGAGAGAAGAA,17400 a.u.
CGTCACTAGTACTATCACCTGAAAACATGCTTCCAA,5900 a.u.
CTAACGAAGGTTTGTGTAGTGGGTGACAAGCCAAGT,3980 a.u.
AAATTACTAAGTTGCCGAGTGGGTGACGCCGTATGA,4570 a.u.
TCCATTCTCTACGGCCACGCTGAAACACGAATCATC,8550 a.u.
AAATTACTAAGTTGAATGGTGGGTGACGCCGTATGA,4170 a.u.
GCAGCGGCGGCCTTTCTCGTGATGGTGGCGCTCGGA,3850 a.u.
CTTCAGTCCTCAAGGGGCGTGCTTTTTGCTCTTGCT,10100 a.u.
CTAACGAAGGTTTGCCTTGTGGGTGACAAGCCAAGT,5030 a.u.
CTTCTGTAAATTTGACATGTGGGTGGACGCGCCCCG,10100 a.u.

# Block 2 — technique: RNA Bind-n-Seq; form: RNA; sample: in vitro; concentration: 20 nM; notes: 6-mer, flanks averaged, single round; added: 150 mM KCl; relative to: input library; direction: higher = stronger binding
# Target: TAR DNA-binding protein 43, full length, His tag (TARDBP, Homo sapiens, UniProt Q13148, residues 1-414)
Strand,6-mer enrichment (R)
CCUCAG,0.668
UUUAAU,0.638
CACACC,0.672
AGCAGA,0.899
AUUAUC,0.544
AAUACG,0.698
AUAGAG,0.98
GUUCGA,0.763
GUGUGG,3.55
AUACGA,0.635
AAACGG,0.938
AUUGCG,0.857
ACGGUG,1.43

# Block 3 — technique: protein binding microarray; form: double-stranded DNA, one strand shown; sample: in vitro; concentration: not given; relative to: not given; direction: higher = stronger binding
# Target: Histone acetyltransferase KAT6A, both winged helices, GST fusion (KAT6A, Homo sapiens, UniProt Q92794, residues 1-181)
# Notes: 8-mer, flanks averaged, mean of 2 arrays, mostly near background
# Target sequence (chain): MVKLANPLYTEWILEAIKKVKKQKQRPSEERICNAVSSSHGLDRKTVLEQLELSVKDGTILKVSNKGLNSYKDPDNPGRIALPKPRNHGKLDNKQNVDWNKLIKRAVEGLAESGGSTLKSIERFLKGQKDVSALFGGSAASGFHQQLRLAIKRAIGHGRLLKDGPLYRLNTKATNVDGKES
Strand,E-score
ACTGGACA,-0.114
ACACCTGC,0.016
ATAGCATA,-0.0496
ATCTGCGC,0.207
TAATATGA,-0.0788
ACTACCTC,-0.19
AATATAAT,-0.0339
AATAGATG,-0.091
CAGTCACG,0.0508
CGTCCCGA,0.169
AGGAAATC,-0.0775
ACACCAAT,-0.112
CTCAGTGA,-0.144
GGTAAAGA,0.0482
CTTAAGTA,-0.0982
CTGCGCTC,0.139
ACATTTCA,-0.118
CCCCCGAA,-0.0713
GAAAATGC,-0.064
CCAAGGAA,-0.0387
GACGTAAA,0.0548
CAAGTAAG,-0.165
TGAACCCA,0.0113
CGTCGTAC,0.153
CCAGTTGC,-0.137

# Block 4 — target: CEBPB, bZIP domain (human); technique: DHFR protein complementation; sample: yeast; relative to: wild-type JUN-FOS pair; direction: higher = stronger binding
# Notes: single substitutions, most at no-binding floor
# Starting sequence: JUN, bZIP domain (human); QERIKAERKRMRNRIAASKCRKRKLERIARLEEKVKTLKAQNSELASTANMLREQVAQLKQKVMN; partner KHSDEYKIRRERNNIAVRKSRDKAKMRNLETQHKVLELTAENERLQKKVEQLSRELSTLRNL
Variant,binding fitness [natural log]
Q41G,-1.49
A49S,-1.5
K39T,-1.17
K36W,-1.45
M51E,-1.3
M51Y,-1.25
S43A,-1.11
A29G,-1.31
E44A,-1.35
Q41P,-1.48
R53S,-0.935
E54C,-1.37
N42Y,-1.5
L45W,-1.51
Q55A,-1.33
K34C,-1.34
L31R,-1.39

# Block 5 — target: CCND1, cyclin fold, Cln2 fusion (human); technique: yeast growth competition, sequencing; sample: yeast; notes: weak parent motif; relative to: not given; direction: higher = stronger binding
# Starting sequence: CDAN1 docking peptide (human); RGARSQLFPPTEA; partner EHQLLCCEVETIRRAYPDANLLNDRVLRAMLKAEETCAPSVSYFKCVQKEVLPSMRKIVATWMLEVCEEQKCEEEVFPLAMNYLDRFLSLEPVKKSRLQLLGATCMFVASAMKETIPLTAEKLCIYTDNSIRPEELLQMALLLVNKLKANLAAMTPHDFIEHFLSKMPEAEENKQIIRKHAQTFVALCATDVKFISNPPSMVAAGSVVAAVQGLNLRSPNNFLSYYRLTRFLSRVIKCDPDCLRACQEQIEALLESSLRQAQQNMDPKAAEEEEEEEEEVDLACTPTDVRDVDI
Variant,normalised enrichment score
L7A,-0.0934
P10A,0.0952
F8A,0.00894
R1A,-0.065
P9A,0.0883

# Block 6 — target: UBE2V1 UBC core domain (UniProt Q13404); technique: yeast two-hybrid; sample: yeast; notes: mostly zero background; relative to: not given; direction: higher = stronger interaction
# B1: SHPRH RING domain (UniProt Q149N8); chain KTSGGVNPEPCPICARQLGKQWAVLTCGHCFCNECISIIIEQYSVGSHRSSIKCAICRQTTSHKEISY
# B2: MARCHF2 RING domain (UniProt Q9P0N8); chain RLLSTVIRALDTPSDGPFCRICHEGANGECLLSPCGCTGTLGAVHKSCLEKWLSSSNTSYCELCHTEFAVEKRPRPLTEWL
# B3: TRIM32 RING domain (UniProt Q13049); chain NLDALREVLECPICMESFTEEQLRPKLLHCGHTICRQCLEKLLASSINGVRCPFCSKITRITSLTQ
# B4: CBLL1 RING domain (UniProt Q75N03); chain GEKDDTPVHFCDKCGLPIKIYGRMIPCKHVFCYDCAILHEKKGDKMCPGCSDPVQRIEQCT
# B5: TRIM34 RING domain (UniProt Q9BYJ4); chain ILLNVQEEVTCPICLELLTEPLSLDCGHSLCRACITVSNKEAVTSMGGKSSCPVCGISYSFEHLQA
# B6: RNF7 RING domain (UniProt Q9UBF6); chain AICRVQVMDACLRCQAENKQEDCVVVWGECNHSFHNCCMSLWVKQNNRCPLCQQDWVVQRIGK
# B7: TRIM47 RING domain (UniProt Q96LD4); chain MDGSGPFSCPICLEPLREPVTLPCGHNFCLACLGALWPHRGASGAGGPGGAARCPLCQEPFPDGLQLR
# B8: ARIH1 RING domain (UniProt Q9Y4X5); chain NTRSSAQDMPCQICYLNYPNSYFTGLECGHKFCMQCWSEYLTTKIMEEGMGQTISCPAHGCDILVDDNTVM
# Construct (chain): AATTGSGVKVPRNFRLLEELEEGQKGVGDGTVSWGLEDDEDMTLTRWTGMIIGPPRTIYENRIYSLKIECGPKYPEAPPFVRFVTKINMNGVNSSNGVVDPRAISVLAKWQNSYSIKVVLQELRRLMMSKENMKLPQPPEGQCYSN
Molecule,lacZ reporter activity
B1 (SHPRH RING domain),0
B2 (MARCHF2 RING domain),0
B3 (TRIM32 RING domain),0
B4 (CBLL1 RING domain),0
B5 (TRIM34 RING domain),0
B6 (RNF7 RING domain),0
B7 (TRIM47 RING domain),0
MEEMEEELKCPVCGSFYREPIILPCSHNLCQACARNILVQTPESESPQSHRAAGSGVSDY (TRIM9 RING domain (UniProt Q9C026)),0
B8 (ARIH1 RING domain),0
